{"data": "Published values from different studies", "note": "Protocols differ between the studies behind these lines. ± gives the spread as reported."}
{"SMILES": "N=C(N)NCCC[C@@H]1NC(=O)[C@H](CCCCNC(=O)CC[C@H](NC(=O)CC[C@H](NC(=O)CN2CCN(CC(=O)O)CCN(CC(=O)O)CCN(CC(=O)O)CC2)C(=O)N[C@@H](CCC(=O)NCCCC[C@@H]2NC(=O)[C@@H](Cc3ccccc3)NC(=O)[C@H](CC(=O)O)NC(=O)CNC(=O)[C@H](CCCNC(=N)N)NC2=O)C(=O)NCCCC[C@@H]2NC(=O)[C@@H](Cc3ccccc3)NC(=O)[C@H](CC(=O)O)NC(=O)CNC(=O)[C@H](CCCNC(=N)N)NC2=O)C(=O)NCCCC[C@@H]2NC(=O)[C@@H](Cc3ccccc3)NC(=O)[C@H](CC(=O)O)NC(=O)CNC(=O)[C@H](CCCNC(=N)N)NC2=O)NC(=O)[C@@H](Cc2ccccc2)NC(=O)[C@H](CC(=O)O)NC(=O)CNC1=O [indium-111 labelled]", "system": "female athymic nu/nu mice, kidney", "conditions": "intravenous, 24 h", "quantity": "tissue uptake", "result": "5.11 ± 0.52 %ID/g"}
{"SMILES": "CCCC[C@H](NC(=O)CCCCCCCNC(=O)CN1CCN(CC(=O)O)CCN(CC(=O)O)CC1)C(=O)N[C@H]1CC(=O)NCCCC[C@@H](C(N)=O)NC(=O)[C@H](Cc2c[nH]c3ccccc23)NC(=O)[C@H](CCCNC(=N)N)NC(=O)[C@@H](Cc2ccccc2)NC(=O)[C@H](Cc2c[nH]cn2)NC1=O [copper-64 labelled]", "system": "C57 mice, brain", "conditions": "intravenous, 0.37 MBq, 2 h", "quantity": "tissue uptake", "result": "0.04 ± 0.01 %ID/g"}
{"SMILES": "C=C1CC[C@H](OCCCNC(=O)CCOCCOCCOCCOCCOCCOCCOCCOCCOCCOCCOCCOCCOCCOCCOCCOCCOCCOCCOCCOCCOCCOCCOCCOCCOCCOCCOCCOCCOCCOCCOCCOCCOCCOCCOCCOCCNC(=O)CCN2C(=O)CC(SC[C@H](NC(=O)[C@H](Cc3ccccc3)NC(=O)[C@H](CC(N)=O)NC(=O)[C@H](Cc3c[nH]cn3)NC(=O)[C@@H](NC(=O)[C@H](CC(=O)O)NC(=O)[C@H](CCC(N)=O)NC(=O)[C@H](CC(C)C)NC(=O)[C@H](CCCCN)NC(=O)[C@H](CCCCN)NC(=O)[C@H](CCCNC(=N)N)NC(=O)[C@H](CC(C)C)NC(=O)[C@H](Cc3c[nH]c4ccccc34)NC(=O)[C@H](CCC(=O)O)NC(=O)[C@@H](NC(=O)[C@H](CCCNC(=N)N)NC(=O)[C@H](CCC(=O)O)NC(=O)[C@H](CCSC)NC(=O)[C@H](CO)NC(=O)[C@H](CC(N)=O)NC(=O)[C@H](CC(C)C)NC(=O)[C@H](Cc3c[nH]cn3)NC(=O)[C@H](CCCCN)NC(=O)CNC(=O)[C@H](CC(C)C)NC(=O)[C@H](CC(N)=O)NC(=O)[C@H](Cc3c[nH]cn3)NC(=O)[C@H](CCSC)NC(=O)[C@H](CC(C)C)NC(=O)[C@H](CCC(N)=O)NC(=O)[C@@H](NC(=O)[C@H](CCC(=O)O)NC(=O)[C@H](CO)NC(=O)[C@@H](NC(=O)[C@@H](N)CO)C(C)C)[C@@H](C)CC)C(C)C)C(C)C)C(N)=O)C2=O)C/C1=C/C=C1\\CCC[C@]2(C)[C@@H]([C@H](C)CCCC(C)(C)O)CC[C@@H]12 (stereo partly shown)", "system": "cynomolgus monkey", "conditions": "sc, 7 µg/kg every other day, 21 days", "how to read": "baseline: 0.7 µg/kg dose", "quantity": "dose-normalised AUC", "result": 0.28}
{"SMILES": "N=C(N)NCCC[C@@H]1NC(=O)[C@H](CCCCNC(=O)CNC(=O)CNC(=O)CNC(=O)CC[C@H](NC(=O)CNC(=O)CNC(=O)CNC(=O)CC[C@H](NC(=O)CN2CCN(CC(=O)O)CCN(CC(=O)O)CCN(CC(=O)O)CC2)C(=O)NCC(=O)NCC(=O)NCC(=O)N[C@@H](CCC(=O)NCC(=O)NCC(=O)NCC(=O)NCCCC[C@@H]2NC(=O)[C@@H](Cc3ccccc3)NC(=O)[C@H](CC(=O)O)NC(=O)CNC(=O)[C@H](CCCNC(=N)N)NC2=O)C(=O)NCC(=O)NCC(=O)NCC(=O)NCCCC[C@@H]2NC(=O)[C@@H](Cc3ccccc3)NC(=O)[C@H](CC(=O)O)NC(=O)CNC(=O)[C@H](CCCNC(=N)N)NC2=O)C(=O)NCC(=O)NCC(=O)NCC(=O)NCCCC[C@@H]2NC(=O)[C@@H](Cc3ccccc3)NC(=O)[C@H](CC(=O)O)NC(=O)CNC(=O)[C@H](CCCNC(=N)N)NC2=O)NC(=O)[C@@H](Cc2ccccc2)NC(=O)[C@H](CC(=O)O)NC(=O)CNC1=O [indium-111 labelled]", "system": "female athymic nu/nu mice, spleen", "conditions": "intravenous, 111 kBq, 0.5 h", "quantity": "tissue uptake", "result": "2.63 ± 0.45 %ID/g"}
{"SMILES": "CC(C)C[C@H](NC(=O)C[C@H](O)[C@H](CC(C)C)NC(=O)[C@H](Cc1c[nH]cn1)NC(=O)CNC(=O)[C@@H](NC(=O)[C@H](C)NC(=O)[C@H](Cc1c[nH]c2ccccc12)NC(=O)[C@H](CCC(N)=O)NC(=O)[C@@H](Cc1ccccc1)NC(=O)CCOCCOCCOCCNC(=O)CN1CCN(CC(=O)O)CCN(CC(=O)O)CC1)C(C)C)C(N)=O [gallium-68 labelled]", "test": "radio-HPLC", "system": "Balb/c mouse, serum", "conditions": "intravenous, 37 MBq, 5 min", "quantity": "intact parent compound", "result": "88.9%"}
{"SMILES": "COc1ccc2cc([C@H](C)C(=O)NCCCC[C@@H](NC(=O)[C@@H](Cc3ccccc3)NC(=O)[C@H](N)Cc3ccccc3)C(=O)O)ccc2c1", "system": "hydrogel 0.8 wt% into PBS", "conditions": "24 h, pH 7.4, 37 °C", "quantity": "cumulative release", "result": "35.8%"}
{"SMILES": "CC(C)C[C@H](NC(=O)[C@H](Cc1ccc(O)cc1)NC(=O)[C@@H](CCCNC(=N)N)NC(=O)[C@@H](CO)NC(=O)[C@H](Cc1ccccc1)NC(=O)[C@H](CC1CCCCC1)NC(=O)[C@H](CC(=O)O)NC(=O)CN1CCN(CC(=O)O)CCN(CC(=O)O)CCN(CC(=O)O)CC1)C(=O)N[C@@H](Cc1c[nH]c2ccccc12)C(=O)N[C@@H](CO)C(=O)O [copper-64 labelled]", "test": "radio-HPLC", "system": "human, plasma", "conditions": "iv", "quantity": "time intact in plasma", "result": "≤ 30 min"}
{"SMILES": "CCCC[C@H](NC(=O)COCCOCCNC(=O)CN1CCN(CC(=O)O)CCN(CC(=O)O)CC1)C(=O)N[C@H]1CC(=O)NCCCC[C@@H](C(N)=O)NC(=O)[C@H](Cc2c[nH]c3ccccc23)NC(=O)[C@H](CCCNC(=N)N)NC(=O)[C@@H](Cc2ccccc2)NC(=O)[C@H](Cc2c[nH]cn2)NC1=O [copper-64 labelled]", "system": "C57 mice, liver", "conditions": "intravenous, 0.37 MBq, 0.5 h", "quantity": "tissue uptake", "result": "2.61 ± 0.55 %ID/g"}
{"SMILES": "N=C(N)NCCC[C@@H]1NC(=O)[C@H](CCCCNC(=O)CNC(=O)CNC(=O)CNC(=O)CC[C@H](NC(=O)CNC(=O)CNC(=O)CNC(=O)CN2CCN(CC(=O)O)CCN(CC(=O)O)CCN(CC(=O)O)CC2)C(=O)NCC(=O)NCC(=O)NCC(=O)NCCCC[C@@H]2NC(=O)[C@@H](Cc3ccccc3)NC(=O)[C@H](CC(=O)O)NC(=O)CNC(=O)[C@H](CCCNC(=N)N)NC2=O)NC(=O)[C@@H](Cc2ccccc2)NC(=O)[C@H](CC(=O)O)NC(=O)CNC1=O [indium-111 labelled]", "system": "female athymic nu/nu mice, heart", "conditions": "intravenous, 1 h", "quantity": "tissue uptake", "result": "0.6 ± 0.12 %ID/g"}
{"SMILES": "CC(C)C[C@@H](NC(=O)[C@@H](CCC(=O)O)NC(=O)[C@@H](CC(C)C)NC(=O)[C@@H](CC(C)C)NC(=O)[C@@H](CC(C)C)NC(=O)[C@H](NC(=O)[C@@H](CCC(=O)O)NC(=O)[C@H](NC(=O)[C@H]1CCCN1C(=O)[C@@H](Cc1ccccc1)NC(=O)[C@@H](CC(C)C)NC(=O)[C@@H](Cc1c[nH]c2ccccc12)NC(=O)[C@@H](CCC(=O)O)NC(=O)[C@@H](CC(C)C)NC(=O)[C@@H](Cc1ccc(O)cc1)NC(=O)[C@@H](CCCNC(=N)N)NC(=O)[C@@H](C)NC(=O)[C@@H](Cc1c[nH]c2ccccc12)NC(=O)[C@H]1CCCN1C(=O)[C@@H](CC(N)=O)NC(=O)[C@@H](CCC(N)=O)NC(=O)[C@@H](CCC(=O)O)NC(=O)[C@@H](CCC(=O)O)NC(=O)[C@@H](CS)NC(=O)[C@@H](C)NC(=S)Nc1ccc(CC2CN(CC(=O)O)CCN(CC(=O)O)CCN2CC(=O)O)cc1)[C@H](C)O)[C@H](C)O)C(=O)O (stereo partly shown) [fluorine-18 labelled]", "system": "female BALB/c mice, 4T1 orthotopic tumour", "conditions": "intravenous, 2 h", "how to read": "baseline: kidney over large intestine", "quantity": "kidney-to-large intestine ratio", "result": "0.55 ± 0.19"}
{"SMILES": "Cc1cc(-c2ccc(NC(=O)[C@H](CCCCNC(=O)CCOCCOCCC(=O)N[C@H](Cc3ccccc3)C(=O)N[C@H]3CSSC[C@@H](C(=O)N[C@H](C(=O)O)[C@@H](C)O)NC(=O)[C@H]([C@@H](C)O)NC(=O)[C@H](CCCCN)NC(=O)[C@@H](Cc4c[nH]c5ccccc45)NC(=O)[C@H](Cc4ccc(O)cc4)NC3=O)NC(=O)CN3CCN(CC(=O)O)CCN(CC(=O)O)CCN(CC(=O)O)CC3)c(C)c2)ccc1N=Nc1ccc2c(S(=O)(=O)O)cc(S(=O)(=O)O)c(N)c2c1O [lutetium-177 labelled]", "test": "item: non-haematologic adverse events", "system": "patients with metastatic neuroendocrine tumours", "conditions": "dose not given", "quantity": "patients with toxicity", "result": "33%"}
{"SMILES": "CCCC[C@H](NC(=O)CNC(=O)CNC(=O)CN1CCN(CC(=O)O)CCN(CC(=O)O)CC1)C(=O)N[C@H]1CC(=O)NCCCC[C@@H](C(N)=O)NC(=O)[C@H](Cc2c[nH]c3ccccc23)NC(=O)[C@H](CCCNC(=N)N)NC(=O)[C@@H](Cc2ccccc2)NC(=O)[C@H](Cc2c[nH]cn2)NC1=O [technetium-99m labelled]", "system": "C57 mouse, tumor", "conditions": "iv, 0.037 MBq, 4 h", "quantity": "tissue uptake", "result": "11.3 ± 2.81 %ID/g"}
{"SMILES": "CC(C)C[C@@H](NC(=O)[C@@H](CC(C)C)NC(=O)[C@@H](CC(=O)O)NC(=O)[C@@H](CC(C)C)NC(=O)[C@@H](CC(C)C)NC(=O)[C@@H](CC(C)C)NC(=O)[C@H](NC(=O)[C@@H](CC(=O)O)NC(=O)[C@H](NC(=O)[C@H]1CCCN1C(=O)[C@@H](Cc1ccccc1)NC(=O)[C@@H](CC(C)C)NC(=O)[C@@H](CC(C)C)NC(=O)[C@@H](CC(=O)O)NC(=O)[C@@H](CC(C)C)NC(=O)[C@@H](Cc1ccc(O)cc1)NC(=O)[C@@H](C)NC(=O)[C@@H](CCCNC(=N)N)NC(=O)[C@@H](Cc1c[nH]c2ccccc12)NC(=O)[C@H]1CCCN1C(=O)[C@@H](CC(N)=O)NC(=O)[C@@H](CCC(N)=O)NC(=O)[C@@H](CC(=O)O)NC(=O)[C@@H](CC(=O)O)NC(=O)[C@@H](CS)NC(=O)[C@@H](C)NC(=S)Nc1ccc(CC2CN(CC(=O)O)CCN(CC(=O)O)CCN2CC(=O)O)cc1)[C@H](C)O)[C@H](C)O)C(=O)N[C@H](Cc1c[nH]c2ccccc12)C(=O)O (stereo partly shown) [copper-64 labelled]", "system": "female BALB/c mice, 4T1 orthotopic tumour", "conditions": "intravenous, 2 h", "how to read": "baseline: kidney over large intestine", "quantity": "kidney-to-large intestine ratio", "result": "0.29 ± 0.12"}
{"note": "A few entries again:"}
{"SMILES": "CC(C)C[C@@H](NC(=O)[C@@H](CCC(=O)O)NC(=O)[C@@H](CC(C)C)NC(=O)[C@@H](CC(C)C)NC(=O)[C@@H](CC(C)C)NC(=O)[C@H](NC(=O)[C@@H](CCC(=O)O)NC(=O)[C@H](NC(=O)[C@H]1CCCN1C(=O)[C@@H](Cc1ccccc1)NC(=O)[C@@H](CC(C)C)NC(=O)[C@@H](Cc1c[nH]c2ccccc12)NC(=O)[C@@H](CCC(=O)O)NC(=O)[C@@H](CC(C)C)NC(=O)[C@@H](Cc1ccc(O)cc1)NC(=O)[C@@H](CCCNC(=N)N)NC(=O)[C@@H](C)NC(=O)[C@@H](Cc1c[nH]c2ccccc12)NC(=O)[C@H]1CCCN1C(=O)[C@@H](CC(N)=O)NC(=O)[C@@H](CCC(N)=O)NC(=O)[C@@H](CCC(=O)O)NC(=O)[C@@H](CCC(=O)O)NC(=O)[C@@H](CS)NC(=O)[C@@H](C)NC(=S)Nc1ccc(CC2CN(CC(=O)O)CCN(CC(=O)O)CCN2CC(=O)O)cc1)[C@H](C)O)[C@H](C)O)C(=O)O (stereo partly shown) [fluorine-18 labelled]", "system": "female BALB/c mice, 4T1 orthotopic tumour", "conditions": "intravenous, 2 h", "how to read": "baseline: kidney over large intestine", "quantity": "kidney-to-large intestine ratio", "result": "0.55 ± 0.19"}
